Experimental data collected from several papers.
Every numbered part comes from another study and shows a few of its results, in no order.

Block 1
Target: Ras GTPase-activating protein-binding protein 1, C-terminal RGG region (G3BP1, Homo sapiens, UniProt Q13283)
Sequence of UniProt Q13283 (whole entry, looked up): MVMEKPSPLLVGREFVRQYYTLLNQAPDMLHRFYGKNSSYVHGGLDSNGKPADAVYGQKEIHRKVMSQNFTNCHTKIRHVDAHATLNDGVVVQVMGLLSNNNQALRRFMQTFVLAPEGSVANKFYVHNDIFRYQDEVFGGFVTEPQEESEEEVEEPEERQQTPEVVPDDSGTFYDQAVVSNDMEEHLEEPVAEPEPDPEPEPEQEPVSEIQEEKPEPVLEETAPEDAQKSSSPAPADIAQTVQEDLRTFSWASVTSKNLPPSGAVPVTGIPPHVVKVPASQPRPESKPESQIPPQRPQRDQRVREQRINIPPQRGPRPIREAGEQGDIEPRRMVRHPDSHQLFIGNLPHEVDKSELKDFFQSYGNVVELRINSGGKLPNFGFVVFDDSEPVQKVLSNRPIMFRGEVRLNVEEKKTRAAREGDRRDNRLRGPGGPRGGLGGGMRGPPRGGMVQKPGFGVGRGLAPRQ
Method: RNA Bind-n-Seq
Molecule type: RNA
Medium: in vitro
Concentration: 1 µM
Setting: whole 134-nt RNA, ends assumed
With: 150 mM KCl
Reference: input library
Reading: higher = stronger binding
All sequences stand within: GGGAGUUCUACAGUCCGACGAUC … UGGAAUUCUCGGGUGUCAAGG
| Strand | log2 enrichment |
| --- | --- |
| ACCAUGCAGGUGGGCAUCUUUGGGAAGUGGGGCAAGGGGGGGAUAGGGAGGGGGGUAACACUUUGGGAACAGUUGGUCCCAGGUCGUUUC | 2.27 |
| UGGGAGGUGGAUUUUGUUUAUUUUUUUAGCUCAUUUCCAGGGGUGGGAACUUUUUUUUAAUAUGUGUCAUGAAUAAAGUUGUUUUUGAAA | 3.57 |
| GUCCUGUGCUACACAUCGUAUGUACCGAAUCGGGAAAAAGGGAAAGGGAAAAAAAGGGAAAGUAUUAUGUUACGCCGUUCGGAUCUGCAC | -0.815 |
| UAUUGGACACAGUGCCCCGCUGAACAGCAGCUGUUCCCAGCGCCAGAGGACCCCACAGCCACAGUAGGAGCUUUGCGACCCCUACGCAAC | -1.32 |
| UGGCCCUGGUGGCAUGCGGGGAGGAAGAGGUGACCUCAUGGAUCGUGGUGGUCCCGGUGGAAUGUUCAGAGGUGGCCGUGGUGGAGACAG | 1.79 |
| UCAAGUCCUGUGCUACACAUCGUAUGUACCGAAUCGGGGCCGGGGCCGGCCGGGGAAAGUAUUAUGUUACGCCGUUCGGAUCUGCACUUC | -1.88 |
| UGUUUAAUAAACGUGAAGAUGUCUCGCAGUCCUGAUGCGAAGGAAGACCCUGUGGAGUGCCCUCUUUGCAUGGAGCCCUUGGAGAUAGAU | -1.61 |
| GUCCUGUGCUACACAUCGUAUGUACCGAAUCAAACCCCCAAAUUUUUUUAAAUUUAAAAAAGUAUUAUGUUACGCCGUUCGGAUCUGCAC | -0.622 |
| CAAGUCCUGUGCUACACAUCGUAUGUACCGAAUCGGGAAAGGGUUUUUGGGAGGGAAAGUAUUAUGUUACGCCGUUCGGAUCUGCACUUC | 1.2 |
| CUGUGCUACACAUCGUAUGUACCGAAUCGGGGUUUUUUUGGGGUUUUUGGGGUUUUUGGGGAAAGUAUUAUGUUACGCCGUUCGGAUCUG | -0.155 |

Block 2
Target: RNA binding protein fox-1 homolog 2, RRM domain, GST-SBP tag (RBFOX2, Homo sapiens, UniProt O43251-10, residues 100-194)
Method: RNA Bind-n-Seq
Molecule type: RNA
Medium: in vitro
Concentration: 365 nM
Setting: natural RNA segment, single round, ends assumed
Reference: no-protein control
Reading: higher = stronger binding
All sequences stand within: GGGAGUUCUACAGUCCGACGAUC … UGGAAUUCUCGGGUGCCAA
Residues (chain): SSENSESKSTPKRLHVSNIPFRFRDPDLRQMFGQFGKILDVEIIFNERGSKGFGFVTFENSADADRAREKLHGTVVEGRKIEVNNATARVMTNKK
| Strand | RBNS enrichment (R) |
| --- | --- |
| CUAUACAUGUAAAGACACAGUGGCUCUGUGUGUCAUCAAGCAGCUGUAUUUUAUGUAUGCUUUACUGGUAAGUGUGCCAAUAAUAAACUGUGUUAAUGACCAAAGUAAGU | 0.49 |
| CAGGUCAUUCCUUGGCUAAGCCUUCGAGCUCCCUUAUACCCAUGCUAUCUGGUUUGACAAUUCCAUAUAUGGCAGUGGUGGUCUUCACUGAUGGUUGCGAGUGCAGGGAC | 1.1 |
| UCUUCCCUGAUCCCACCAUCCUACCUACGCCCCCCCUCCCCUCAGCCCUAGUCUCCUCCAUUGACAGUCAUCCAUCUCUGCCUAAGGGACAAAGAAAUCCUUCUACCUGA | 0.694 |
| UUAAAAAGGCAGAACUAGGGAGGUGACUUUAGGCCUCCUGCUGUGGCCUCUGAAGAAGGUGACUCUUCAGGUAAGACUGAUGGAGGCUACACCGACAAACCGCAGACACG | 0.245 |
| UCGUAUUUGGCACACAGCAGAGGCCCAGAUAUUAGAAAGGCUCUAUUCCAAUAAACUAUGAGGACUGCCUUAUGGAUGAUUUAAGUGUCUCACUAAAGCAUGAAAUGUGA | 9.38 |
| GUCAGUUGUGAGGGCCUGAUUAGACUCUGGAGCAUGGUGUACGACUCUUCUCCAAGAGCGCAUGCAAGAGUCUCCCCCCCUCAGCCUCAUUAAAGACGAAAAGCCACCUC | 0.424 |
| UCCUCAUCCUCCAUCCACAAGUGUCCUUCCAAGCAAGGUCCCCCUCUAGACAGUAGACAAGGACCCUUCUACUGAACCUCCAAGGAAAAGAAGAAGGAAAAGAAGAAGUG | 0.272 |
| CUUCAAUUGGUACUUUAUUCUUUGCUGCUGUUUUUGUAUAAAAUGACCUAUCCCACGUUUUUGCAUGAAUUUAUAGCAGGAAAAAUCAAGGGAUUUCCUAUGGAAGUCCU | 0.566 |

Block 3
Target: Myc proto-oncogene protein, bHLH-zipper, MAX partner unstated (MYC, Homo sapiens, UniProt P01106, residues 368-449)
Sequence of UniProt P01106 (368-449, looked up): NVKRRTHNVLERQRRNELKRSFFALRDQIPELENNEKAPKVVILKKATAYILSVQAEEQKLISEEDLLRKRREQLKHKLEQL
Method: protein-binding microarray
Molecule type: double-stranded DNA, one strand shown
Medium: in vitro
Concentration: not given
Setting: k-mer, scored over probes, only values ≥0.25
Reading: higher = stronger binding
| Strand | E-score |
| --- | --- |
| ACGTGTCG | 0.441 |
| AGACACGC | 0.428 |
| ACGGGTGG | 0.251 |
| ACGAGCGG | 0.27 |
| ACGCGCCG | 0.294 |
| CGTGTGTC | 0.327 |
| CATGTTTC | 0.3 |
| GTGGGACA | 0.334 |
| ACATGTGG | 0.478 |
| ACCTCGTG | 0.475 |
| TCACGCGA | 0.38 |
| CACGACCG | 0.256 |
| GCACGTTA | 0.342 |

Block 4
Target: TAR DNA-binding protein 43, full length, His tag (TARDBP, Homo sapiens, UniProt Q13148, residues 1-414)
Method: RNA Bind-n-Seq
Molecule type: RNA
Medium: in vitro
Concentration: 20 nM
Setting: 6-mer, flanks averaged, single round
With: 150 mM KCl
Reference: input library
Reading: higher = stronger binding
| Strand | 6-mer enrichment (R) |
| --- | --- |
| CCAAUA | 0.65 |
| UGACCG | 0.846 |
| UGGCAA | 0.869 |
| AGGAGU | 1.41 |
| CCCCGG | 0.821 |
| GAGCGG | 3.62 |
| UGAUUC | 0.575 |
| UCCAUG | 0.667 |
| UCUUCC | 0.539 |
| AUUACC | 0.577 |
| GUUGAA | 0.862 |
| UGUGAG | 1.72 |
| GCGUGU | 1.59 |
| UACCAG | 0.7 |

Block 5
Target: RING finger protein unkempt homolog, zinc fingers 1-6, GST-SBP tag (UNK, Homo sapiens, UniProt Q9C0B0, residues 30-357)
Method: RNA Bind-n-Seq
Molecule type: RNA
Medium: in vitro
Concentration: not given
Setting: RNA with constant flanks, human and mouse sites, ends assumed
Reference: input RNA pool
Reading: higher = stronger binding
All sequences stand within: GGGAGUUCUACAGUCCGACGAUC … CAACAGAGGAUUGAGCAUCA
Residues (chain): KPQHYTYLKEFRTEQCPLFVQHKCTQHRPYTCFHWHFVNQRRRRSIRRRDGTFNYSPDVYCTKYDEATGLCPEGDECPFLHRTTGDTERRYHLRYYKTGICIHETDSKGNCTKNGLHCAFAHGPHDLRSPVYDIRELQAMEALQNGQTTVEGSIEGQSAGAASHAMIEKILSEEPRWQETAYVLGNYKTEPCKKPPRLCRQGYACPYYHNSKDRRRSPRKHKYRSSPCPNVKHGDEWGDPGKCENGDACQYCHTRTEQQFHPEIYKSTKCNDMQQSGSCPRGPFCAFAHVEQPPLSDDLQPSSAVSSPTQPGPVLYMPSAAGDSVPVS
| Strand | bound/input enrichment |
| --- | --- |
| UGGAUGAAUUUUUAGUGAAAAAUGAUCCCUGCCGAGCACGAGGUAGAACUAACAUUGAACUUAGAGAGAAAUUCAUCCUACCAGAGGGAGCAUCCCAGGGAAUGACCCCCUUCCGCUCAC | 0.352 ratio |
| CUUCCGUUUAUUGUUUCACAUAGGUUGUCUAAUACCUUGAGCUUAGAUAUUCAUGAAAAUCAUAGCCUUGCACUUCUAGGAAAGAAGAAAUCAAGCAGCUUAACAUUACCACCCAAAUAC | 1.07 ratio |
| UGGUGUUGCUGAACUGCUUUUUAACACAAUCCAGGCAGCCGACAUUGAUACCAGAUCUGAAUUUUACAAGCACAUUGUGCUUUCUGGAGGUUCUACCAUGUAUCCUGGCCUGCCAUCGAG | 0.0934 ratio |
| CUACUGUCCGAAGGCCUUCUUUCCCCACUCAAUUCUUCCUGCCCUGUUAUUAAUUAAGAUAUCUUCAGCUUGUAGUCAGACACAAUCAGAAUCACAGAAAAAUCCUGCCUAAGGCAAAGA | 0.228 ratio |
| GCUGCACCACCUGGCACGGGCCAGGCGUCCGGGGAGAGAAGAUGUUUUCCCGGCUAAGAGCUGUUACCACUCCUUGUACCUUGACCUGCCGCCGAGUGCACCUGAAAGAGAAGGGCAAGC | 0.126 ratio |
| UAUACUUUGCUGAUCAACAUUCUUCAUAGUGAAGAUCUUGGAAAGGAUGUUGAAUUUGAAGUAGUUGGUGACAGCCCUGAAAAAGUGGGGCCAAAACAAGCUGAAGAUGCUGCCAAAAGC | 0.155 ratio |
| UCGGAGUUUGAUCCAUUUUUUAGUCUCUUUGCAUUCACCAACAAAAUUACUUCUGUGCAUAGUAGAAUCAUUUGGUCUUGUGACUGGAGUCCUGAUAACAAGUACUUCUUCACUGGAAGU | 0.815 ratio |
| CAGAGUGAUUCAAACCUGCAACUGGAGUACAGUGGAUUGCUUCCAACAAAAAAUCAAUAUUCUCUAAAUCCCAACAGCCAAGAAAUAAGCUGUCUUUUAUAAAGCAUUGCUAGAGUGACA | 0.235 ratio |

Block 6
Target: Sal-like protein 4, full length isoform B (SALL4, Homo sapiens, UniProt Q9UJQ4-2, residues 1-616)
Method: universal PBM
Molecule type: double-stranded DNA, one strand shown
Medium: in vitro
Concentration: not given
Setting: 8-mer, flanks averaged, mean of replicates
Reading: higher = stronger binding
| Strand | E-score |
| --- | --- |
| GGAAGGCC | -0.276 |
| AACAGTTG | -0.0595 |
| CCTGCAGC | -0.0703 |
| CGTTTTGA | 0.03 |
| CTGTAGTA | 0.272 |
| ACTGGGTC | -0.195 |
| ATCGACCA | -0.139 |
| CTCGTCCC | -0.21 |
| AAGTAAGG | 0.128 |
| CAGAATAA | 0.208 |
| ACCGGTAC | -0.147 |
| GAATGGAA | -0.0139 |
| CCGGTTCA | -0.257 |
| ATTCCAGG | -0.0553 |
| ACTATCTG | -0.101 |
| CTACCATA | 0.141 |
| CTCCCCCC | -0.212 |

Mixed results
Target: human cyclin A2
Effect on: peptide binding
Method: competitive growth sequencing
Molecule type: peptide
Organism: Saccharomyces cerevisiae
Strain: cyclin A2-Cln2 fusion strain
Concentration: concentration not given
Reference: unfused Cln2 strain
Reading: direction not given
| Sequence | setting | binding score |
| --- | --- | --- |
| EDLLKELQKQLEE |  | -0.579 |
| ASPLKKLFTSTGL | mutational scanning library 1 | 0.282 |

Excerpt of the above (block 4):
| Strand | 6-mer enrichment (R) |
| --- | --- |
| GCGUGU | 1.59 |
| AUUACC | 0.577 |
| GUUGAA | 0.862 |
| CCAAUA | 0.65 |
| UGGCAA | 0.869 |
| AGGAGU | 1.41 |
| UCCAUG | 0.667 |
| GAGCGG | 3.62 |
| UGACCG | 0.846 |
| UCUUCC | 0.539 |
